Published values of several laboratories.
A part holds a random share of what one study measured.

Series 1
Target: RNA binding protein fox-1 homolog 2, RRM domain, GST-SBP tag (RBFOX2, Homo sapiens, UniProt O43251-10, residues 100-194)
Technique: RNA Bind-n-Seq
Form: RNA
Matrix: in vitro
Concentration: 365 nM
Notes: natural RNA segment, single round, ends assumed
Relative to: no-protein control
Direction: higher = stronger binding
Shared flanks, not repeated: GGGAGUUCUACAGUCCGACGAUC … UGGAAUUCUCGGGUGCCAA
Strand	RBNS enrichment (R)
GUACCUGCCCCAACAGCCCCCCAUCAUCUGAUUUUGGGUGUGACCCCUCGAGUGUGCAUGCCACCCUGGGGCUCUUCUCAGUCCUGGGCCCAAGUCCCUGAAGCCUAGCA	9.27
UUCCACCAGCUUCUUCCCCUCUUCUCAGUCAUUACUGAGAAGGAUUGGUAUUCAAAGCAAAACUGACAGUUUUCCCCUGUGUCAGGUUUUGCCAUCCCAAUCUUAAGACU	0.635
AAGUCUCCCCAUCUCCUUACAACUGUGUGCUAAGUAAGUAACUUGGCCAAGGGUAGUUUUCAGCUCAAUUUAUAGAAUAGUCCAAAGAGACUUUGAGAAACAUGGUGAUA	0.518
GAAAAAUGCAUGUGGAGAAUUAAACCCAAGUGUUUCGAAUUCAGCACACCCCCUCUCUGUCCUCAGACUGCAGUCCACACGUGCAACUUUUCUGUUUGCACGUGUUUUAU	1.64
CCUGAUCCCUGACUUUGGGGAACCCAGAUCUUUCCUUUGAUUUUUGCUCCUAAUGAUCAAAACCCCAAUUGCAACCAUGUGGCAAGUGGCCAGCUGAGCCCAGGUUACUU	0.392

Series 2
Target: Interferon regulatory factor 7, full length, phosphomimetic (IRF7, Homo sapiens, UniProt Q92985, residues 1-503, S471D/S472D/S475D/S476D/S477D/S483D/S484D/S487D)
Technique: protein-binding microarray
Form: double-stranded DNA, one strand shown
Matrix: in vitro
Concentration: 2200 nM top
Notes: 60-bp whole probe
Added: salmon DNA 0.4 mg/ml
Relative to: random background probes
Direction: higher = stronger binding
Shared flanks, not repeated: GCCTAGCAC … GTCTTGATTCGCTTGACGCTGCTG
Construct (chain): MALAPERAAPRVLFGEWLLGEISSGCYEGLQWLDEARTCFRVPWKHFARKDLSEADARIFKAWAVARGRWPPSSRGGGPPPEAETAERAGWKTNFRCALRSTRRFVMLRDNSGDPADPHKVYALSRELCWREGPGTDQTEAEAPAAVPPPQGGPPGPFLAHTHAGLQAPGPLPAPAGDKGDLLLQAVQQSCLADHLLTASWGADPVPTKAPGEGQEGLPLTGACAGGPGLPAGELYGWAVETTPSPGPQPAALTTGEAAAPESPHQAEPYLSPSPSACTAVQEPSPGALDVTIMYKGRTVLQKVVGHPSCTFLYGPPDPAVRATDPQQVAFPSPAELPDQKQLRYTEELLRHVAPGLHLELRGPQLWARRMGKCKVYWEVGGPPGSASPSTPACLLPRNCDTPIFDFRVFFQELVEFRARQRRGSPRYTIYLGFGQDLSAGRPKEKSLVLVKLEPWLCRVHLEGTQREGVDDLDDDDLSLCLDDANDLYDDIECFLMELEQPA
Strand	fitted relative affinity
GACGGCCTGGGGTTTCGGGACGTGCTA	0.249 z-score
TTAGGTCTCCTACTACTTTAGTGCTAG	0.695 z-score
TTGTTTCTAATATTCTGCTTGTGCTAG	1.68 z-score
GACGAACTCGGGTTTCGAGACGTGCTA	1.72 z-score
GCCGGTTTCCTACTGCTGACGTGCTAG	2.56 z-score

Series 3
Target: Centromere-binding protein 1, full length, His-tagged (CBF1, Saccharomyces cerevisiae, UniProt P17106, residues 1-351)
Chain of UniProt P17106 (whole entry, looked up): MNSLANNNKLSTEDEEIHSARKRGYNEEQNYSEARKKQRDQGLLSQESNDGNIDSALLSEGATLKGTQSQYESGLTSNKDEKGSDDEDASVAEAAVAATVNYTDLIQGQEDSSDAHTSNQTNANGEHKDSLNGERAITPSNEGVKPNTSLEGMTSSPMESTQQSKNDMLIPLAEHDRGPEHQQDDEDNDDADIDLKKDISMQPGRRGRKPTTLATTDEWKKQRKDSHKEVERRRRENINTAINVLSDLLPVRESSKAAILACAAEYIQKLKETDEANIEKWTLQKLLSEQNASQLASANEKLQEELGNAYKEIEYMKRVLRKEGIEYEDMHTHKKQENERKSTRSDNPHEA
Technique: competition protein-binding microarray
Form: double-stranded DNA, one strand shown
Matrix: in vitro
Concentration: 2 µM
Notes: whole 60-bp probe, lowest competitor level
Added: Pho4 competitor, 0.05 µM
Direction: higher = stronger binding
Strand	fluorescence intensity [a.u.]
CATTCAGTGCGTAACGACGCGAATAGGGCTTTGAAAGTCTTGATTCGCTTGACGCTGCTG	53.8
CTATAGGATAACCATCACGGCTAAAACGGTCGAATGGTCTTGATTCGCTTGACGCTGCTG	74.9
CATCTTCTTACATCGCACGTGATGGTAAACTAGTAAGTCTTGATTCGCTTGACGCTGCTG	4960
ATCCAGAACCCGTATCGCGTGCAAACAAAGAGATTTGTCTTGATTCGCTTGACGCTGCTG	113

Further values, each from its own experiment
Substance	target	test	system	setting	how to read	quantity	value
PhoQ, residues 284 288 289 292 302 303 STVVAA	PhoP, residues 12 14 15 18 19 NQAHL (Escherichia coli, UniProt P23836)	Sort-seq, measured: YFP reporter	E. coli	PhoQ-PhoP variant library, added: 10 µM Mg2+	relative to: high Mg2+ state, higher = stronger signaling	fold induction	0.923

Some of these lines once more (series 2):
Strand	fitted relative affinity
TTAGGTCTCCTACTACTTTAGTGCTAG	0.695 z-score
